{"data": "Measurements collected from several papers", "lasR": "Transcriptional activator protein LasR (lasR, Pseudomonas aeruginosa, UniProt P25084)", "MAPK3": "Mitogen-activated protein kinase 3 (MAPK3, Homo sapiens, UniProt P27361)", "KEAP1": "Kelch-like ECH-associated protein 1 (KEAP1, Homo sapiens, UniProt Q14145)", "Uncharacterized hydrolase SAUSA300_2518": "Uncharacterized hydrolase SAUSA300_2518 (Staphylococcus aureus, UniProt Q2FDS6)", "sdiA": "Regulatory protein SdiA (sdiA, Escherichia coli, UniProt P07026)", "Oprm1": "Mu-type opioid receptor (Oprm1, Rattus norvegicus, UniProt P33535)", "note": "Compare with care: the assays were run in different laboratories. “And” joins repeats or separate records; there may be more than shown. ± marks the error that the study gave.", "chain of UniProt Q91V12 (whole entry, looked up)": "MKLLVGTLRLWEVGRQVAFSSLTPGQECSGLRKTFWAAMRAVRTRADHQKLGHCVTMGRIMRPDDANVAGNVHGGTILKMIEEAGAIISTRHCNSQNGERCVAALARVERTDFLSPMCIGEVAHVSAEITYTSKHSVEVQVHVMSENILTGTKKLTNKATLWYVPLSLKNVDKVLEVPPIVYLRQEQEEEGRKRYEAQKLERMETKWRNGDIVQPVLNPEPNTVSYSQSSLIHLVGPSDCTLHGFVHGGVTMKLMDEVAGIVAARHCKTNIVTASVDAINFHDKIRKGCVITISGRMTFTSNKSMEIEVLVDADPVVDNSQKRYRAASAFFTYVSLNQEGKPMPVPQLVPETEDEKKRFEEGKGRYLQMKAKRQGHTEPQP", "chain of UniProt Q14145 (whole entry, looked up)": "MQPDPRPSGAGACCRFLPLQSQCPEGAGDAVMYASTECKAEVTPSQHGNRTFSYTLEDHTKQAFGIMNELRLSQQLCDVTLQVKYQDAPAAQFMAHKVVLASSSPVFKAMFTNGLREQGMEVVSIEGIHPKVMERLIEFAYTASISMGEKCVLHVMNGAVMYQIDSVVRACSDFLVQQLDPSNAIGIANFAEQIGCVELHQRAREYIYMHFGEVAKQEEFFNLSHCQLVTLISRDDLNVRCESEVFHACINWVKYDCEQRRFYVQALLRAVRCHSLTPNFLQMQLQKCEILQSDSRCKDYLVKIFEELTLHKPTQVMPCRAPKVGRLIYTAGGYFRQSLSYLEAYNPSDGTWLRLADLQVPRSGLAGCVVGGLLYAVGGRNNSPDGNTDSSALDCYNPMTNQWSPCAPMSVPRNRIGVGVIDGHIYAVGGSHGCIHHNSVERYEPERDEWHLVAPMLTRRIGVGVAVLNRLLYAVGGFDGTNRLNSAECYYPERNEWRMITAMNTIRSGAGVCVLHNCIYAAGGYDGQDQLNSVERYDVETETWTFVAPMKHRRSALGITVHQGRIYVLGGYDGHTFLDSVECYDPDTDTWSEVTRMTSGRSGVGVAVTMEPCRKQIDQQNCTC", "chain of UniProt Q9ET22 (whole entry, looked up)": "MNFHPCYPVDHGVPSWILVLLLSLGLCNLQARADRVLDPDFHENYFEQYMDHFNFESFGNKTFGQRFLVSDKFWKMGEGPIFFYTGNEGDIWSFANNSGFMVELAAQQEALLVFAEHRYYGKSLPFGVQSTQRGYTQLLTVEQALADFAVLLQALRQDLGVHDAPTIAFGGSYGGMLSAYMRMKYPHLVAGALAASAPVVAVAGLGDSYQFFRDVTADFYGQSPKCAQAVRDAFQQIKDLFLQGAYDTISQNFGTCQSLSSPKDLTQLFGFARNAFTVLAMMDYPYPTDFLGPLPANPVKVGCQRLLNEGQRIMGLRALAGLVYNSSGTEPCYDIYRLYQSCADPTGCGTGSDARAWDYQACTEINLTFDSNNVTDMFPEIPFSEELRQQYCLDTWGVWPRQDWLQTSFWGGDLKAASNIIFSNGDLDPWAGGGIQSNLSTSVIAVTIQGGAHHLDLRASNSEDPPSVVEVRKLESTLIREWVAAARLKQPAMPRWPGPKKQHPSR", "chain of UniProt P07026 (whole entry, looked up)": "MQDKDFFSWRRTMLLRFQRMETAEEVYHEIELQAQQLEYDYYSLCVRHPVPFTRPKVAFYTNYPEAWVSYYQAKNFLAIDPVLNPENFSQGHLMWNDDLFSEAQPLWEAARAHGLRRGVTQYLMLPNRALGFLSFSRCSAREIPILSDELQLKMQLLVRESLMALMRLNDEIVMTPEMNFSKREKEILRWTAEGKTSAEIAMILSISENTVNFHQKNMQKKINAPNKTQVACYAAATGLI", "chain of UniProt Q6DWJ6 (whole entry, looked up)": "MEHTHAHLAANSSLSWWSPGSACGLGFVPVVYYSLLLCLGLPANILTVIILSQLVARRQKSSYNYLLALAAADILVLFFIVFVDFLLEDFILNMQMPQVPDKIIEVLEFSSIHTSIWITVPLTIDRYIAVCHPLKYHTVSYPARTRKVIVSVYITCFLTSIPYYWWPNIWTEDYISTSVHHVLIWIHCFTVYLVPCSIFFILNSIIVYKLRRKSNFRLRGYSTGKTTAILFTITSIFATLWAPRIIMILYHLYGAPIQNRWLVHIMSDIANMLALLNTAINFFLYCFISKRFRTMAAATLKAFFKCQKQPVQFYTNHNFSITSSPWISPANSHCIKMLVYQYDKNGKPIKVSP", "chain of UniProt P33535 (whole entry, looked up)": "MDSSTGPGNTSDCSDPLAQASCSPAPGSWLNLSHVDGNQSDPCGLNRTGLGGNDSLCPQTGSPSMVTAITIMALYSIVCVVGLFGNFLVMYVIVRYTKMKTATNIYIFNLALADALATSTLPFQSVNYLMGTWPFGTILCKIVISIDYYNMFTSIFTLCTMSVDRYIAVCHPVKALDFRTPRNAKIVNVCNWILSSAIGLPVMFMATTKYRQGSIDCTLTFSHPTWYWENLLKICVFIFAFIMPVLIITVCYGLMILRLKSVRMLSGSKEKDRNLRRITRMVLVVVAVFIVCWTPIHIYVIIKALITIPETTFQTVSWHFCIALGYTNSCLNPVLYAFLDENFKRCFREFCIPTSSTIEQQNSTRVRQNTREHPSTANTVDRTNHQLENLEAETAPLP", "chain of UniProt P27361 (whole entry, looked up)": "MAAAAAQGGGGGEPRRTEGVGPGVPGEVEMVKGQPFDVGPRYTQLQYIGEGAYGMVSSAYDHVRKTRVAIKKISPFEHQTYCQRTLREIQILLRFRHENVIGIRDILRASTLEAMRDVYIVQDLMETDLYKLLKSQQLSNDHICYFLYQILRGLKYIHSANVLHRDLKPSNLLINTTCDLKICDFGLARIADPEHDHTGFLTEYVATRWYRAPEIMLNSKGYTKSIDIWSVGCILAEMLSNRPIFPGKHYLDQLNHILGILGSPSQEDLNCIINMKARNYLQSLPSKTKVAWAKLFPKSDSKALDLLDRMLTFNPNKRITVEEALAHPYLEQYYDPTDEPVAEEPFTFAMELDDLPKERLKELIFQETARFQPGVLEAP", "chain of UniProt P42336 (whole entry, unmodified, looked up)": "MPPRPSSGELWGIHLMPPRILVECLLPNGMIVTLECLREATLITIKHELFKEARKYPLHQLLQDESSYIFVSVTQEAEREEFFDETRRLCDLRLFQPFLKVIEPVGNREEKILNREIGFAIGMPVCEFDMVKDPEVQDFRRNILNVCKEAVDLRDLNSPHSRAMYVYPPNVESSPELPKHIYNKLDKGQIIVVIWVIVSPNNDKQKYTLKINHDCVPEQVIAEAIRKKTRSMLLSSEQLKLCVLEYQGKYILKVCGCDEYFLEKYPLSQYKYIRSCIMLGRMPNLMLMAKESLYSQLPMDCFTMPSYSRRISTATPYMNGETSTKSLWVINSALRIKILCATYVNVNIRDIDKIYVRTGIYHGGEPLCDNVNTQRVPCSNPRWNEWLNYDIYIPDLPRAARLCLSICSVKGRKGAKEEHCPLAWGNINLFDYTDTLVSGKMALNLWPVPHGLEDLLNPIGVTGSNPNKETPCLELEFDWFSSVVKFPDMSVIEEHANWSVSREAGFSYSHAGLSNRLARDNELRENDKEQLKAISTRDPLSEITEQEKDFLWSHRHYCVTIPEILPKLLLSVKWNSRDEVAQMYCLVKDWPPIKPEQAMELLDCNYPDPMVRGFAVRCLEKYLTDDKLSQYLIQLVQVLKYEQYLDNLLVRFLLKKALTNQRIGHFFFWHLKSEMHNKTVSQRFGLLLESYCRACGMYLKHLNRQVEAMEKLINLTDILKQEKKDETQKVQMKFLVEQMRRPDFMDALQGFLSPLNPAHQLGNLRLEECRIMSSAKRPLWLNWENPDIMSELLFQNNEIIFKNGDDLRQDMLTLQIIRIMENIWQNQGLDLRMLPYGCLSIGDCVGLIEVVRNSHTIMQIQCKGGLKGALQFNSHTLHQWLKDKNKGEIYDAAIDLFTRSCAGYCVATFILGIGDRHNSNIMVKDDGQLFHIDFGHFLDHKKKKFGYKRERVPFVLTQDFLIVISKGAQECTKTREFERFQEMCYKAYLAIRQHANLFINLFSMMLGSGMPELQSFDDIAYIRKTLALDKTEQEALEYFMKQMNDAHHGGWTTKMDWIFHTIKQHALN", "chain of UniProt O14733 (whole entry, looked up)": "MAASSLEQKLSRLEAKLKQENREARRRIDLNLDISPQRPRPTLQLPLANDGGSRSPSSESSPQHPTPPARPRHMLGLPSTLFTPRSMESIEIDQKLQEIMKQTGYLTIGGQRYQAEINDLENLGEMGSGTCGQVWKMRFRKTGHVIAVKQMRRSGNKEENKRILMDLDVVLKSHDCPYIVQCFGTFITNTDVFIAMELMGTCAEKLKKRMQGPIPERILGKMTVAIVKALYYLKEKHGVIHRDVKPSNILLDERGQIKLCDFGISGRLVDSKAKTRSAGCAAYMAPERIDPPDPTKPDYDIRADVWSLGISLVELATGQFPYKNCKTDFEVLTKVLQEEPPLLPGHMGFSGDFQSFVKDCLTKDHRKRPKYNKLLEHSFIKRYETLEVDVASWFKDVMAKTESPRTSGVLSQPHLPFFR"}
{"Structure (SMILES)": "O=C(Cc1ccc(Br)cc1)N[C@H]1CCOC1=O", "target": "lasR", "test": "reporter gene, antagonist", "scale": "reference: IC50 PAO-JP2 over E. coli JLD271", "quantity": "potency ratio", "value": 33}
{"Structure (SMILES)": "CC(=O)N[C@@H](CCC(N)=O)C(=O)N[C@@H](CC1CCCCC1)C(=O)N[C@@H](CNC(=O)CCl)C(=O)N[C@@H](CC(C)C)C(=O)N[C@@H](Cc1ccccc1)C(=O)O", "target": "Beta sliding clamp (Escherichia coli, UniProt P0A988)", "test": "binding, isothermal titration calorimetry", "conditions": "pH 7.4, 37 °C", "quantity": "ΔH", "value": "-16.9 kcal/mol"}
{"Structure (SMILES)": "O=C(CCCOc1cccc(Br)c1)N[C@H]1CCSC1=O", "target": "lasR", "test": "reporter gene, agonist", "test system": "Pseudomonas aeruginosa PAO-JP2", "conditions": "100 µM, plasI-LVAgfp reporter", "scale": "reference: OdDHL at same concentration", "quantity": "agonist activity", "value": "100%"}
{"Structure (SMILES)": "C[C@H](NCc1ccc(-c2ccc(C(F)(F)F)cc2)cc1)C(N)=O", "target": "MAPK3", "test": "cell-free assay, competition with immobilised ligand", "conditions": "1 µM", "quantity": "inhibition", "value": "4%"}
{"Structure (SMILES)": "CC(C)[C@@H]1NC(=O)[C@H](CCC(=O)O)NC(=O)CNC(=O)[C@H]([C@@H](C)O)NC(=O)[C@H](CCC(=O)O)NC(=O)[C@H](CCC(=O)O)NC(=O)[C@H](CC(=O)O)NC(=O)[C@H](C(C)C)NC(=O)[C@H]([C@@H](C)O)NC(=O)CNC(=O)[C@H](CC(=O)O)NC(=O)[C@H](CC(N)=O)NC(=O)[C@H](Cc2ccc(O)cc2)NC1=O", "target": "KEAP1", "test": "Keap1-Nrf2 binding, inhibitor, competitive FP", "conditions": "0.0061 µM, 30 min, together with: Nrf2 peptide probe", "scale": "lower = stronger inhibition", "quantity": "fluorescence polarization", "value": "1.22 a.u. and 1.03 a.u."}
{"Structure (SMILES)": "CN(C)[C@H]1C[C@@]23CC[C@@]4(O2)C(=CC[C@]2(C)[C@@H](c5ccc6ccncc6c5)CC[C@H]24)C=C3[C@@H](O)[C@@H]1O", "target": "MAP2K7 (Homo sapiens, UniProt O14733)", "test": "ATP probe labelling, inhibitor, KiNativ profiling", "conditions": "1 µM", "quantity": "inhibition", "value": "6.4%"}
{"Structure (SMILES)": "CC[C@H](C)[C@H](NC(=O)[C@H](CCCNC(=N)N)NC(=O)[C@H](CCCNC(=N)N)NC(=O)[C@H](CC(C)C)NC(=O)[C@H](Cc1ccccc1)NC(=O)CNC(=O)CNC(=O)[C@@H](N)Cc1ccc(O)cc1)C(=O)N[C@@H](CCCNC(=N)N)C(=O)N1CCC[C@H]1C(=O)N[C@@H](CCCCN)C(=O)N[C@@H](CC(C)C)C(=O)N[C@@H](CCCCN)C(=O)O", "target": "GPR139 (Homo sapiens, UniProt Q6DWJ6)", "test": "GαoA activation, agonist, BRET", "test system": "HEK293T/17", "conditions": "40 µM", "quantity": "Emax", "value": "92.2% and 91.9%"}
{"Structure (SMILES)": "CCNC(=S)NN=Cc1c2ccccc2cc2ccccc12.Cc1ccc(C(C)C)cc1.[Cl-].[Cl-].[Ru+2]", "target": "Albumin (ALB, Homo sapiens, UniProt P02768)", "test": "modified Stern-Volmer", "conditions": "296 K", "quantity": "binding constant", "value": "6.31 ± 0.23 10⁴ M⁻¹"}
{"Structure (SMILES)": "CC(C)[C@H]1NC(=O)C[C@H]2/C=C/CCSSC[C@@H](NC1=O)C(=O)N[C@H](Cc1cccc3ccccc13)C(=O)NCC(=O)O2", "target": "BLK (Homo sapiens, UniProt P51451)", "test": "enzyme activity, inhibitor", "conditions": "10 µM", "quantity": "inhibition", "value": "4.3%"}
{"Structure (SMILES)": "COc1ccccc1-c1n[nH]c2nc(N[C@H]3CC[C@H](NS(=O)(=O)CC(C)C)CC3)ncc12", "target": "cdc2-related kinase 12 (Leishmania donovani, UniProt A0A3S7WQK2)", "test": "competitor, bead pull-down competition", "test system": "Leishmania donovani extract", "conditions": "2 µM", "scale": "reference: vehicle", "quantity": "remaining binding", "value": "14%"}
{"Structure (SMILES)": "COC(=O)[C@@H](NC(=O)c1nn(Cc2ccc(F)cc2)c2cc(OCCCCNC(=N)N)ccc12)C(C)(C)C", "target": "Cannabinoid receptor 1, with Gi2 (CNR1, Homo sapiens, UniProt P21554)", "test": "GTP turnover, agonist, refers to: Gi2 Gα subtype", "quantity": "maximal efficacy", "value": "114%"}
{"Structure (SMILES)": "CCN(N=Cc1cnc2ccc(Br)cn12)S(=O)(=O)c1cc([N+](=O)[O-])ccc1C", "target": "PIK3CA (Homo sapiens, UniProt P42336, K776A)", "test": "luminescence", "scale": "reference: mutant over wild type", "quantity": "IC50 fold change", "value": "8.8 and 9"}
{"Structure (SMILES)": "COCC1CCCCN1C(=O)n1cc(C(O)(c2ccccc2)c2ccccc2)nn1 (stereo not shown)", "target": "Cytosolic acyl coenzyme A thioester hydrolase (Acot7, Mus musculus, UniProt Q91V12)", "test": "probe labelling, inhibitor, competitive ABPP-SILAC, refers to: Acot7", "test system": "mouse T cells", "conditions": "concentration not given, 4 h, single peptide", "scale": "reference: treated over DMSO cells, lower = stronger inhibition", "quantity": "SILAC activity ratio", "value": "1.49 and 1.31 and 1.48 and 1.47 and 1.59"}
{"Structure (SMILES)": "CCn1nc(Cl)c2c1-c1cnc(N)c(c1)O[C@H](C)c1cc(F)ccc1-c1nn(C)cc1C2", "target": "EPHA1 (Homo sapiens, UniProt P21709)", "test": "kinase activity, inhibitor", "scale": "reference: IC50 EPHA1 over IC50 ALK", "quantity": "selectivity ratio", "value": "225 fold"}
{"Structure (SMILES)": "O=C(Nc1ccncc1)c1ccccc1OS(=O)(=O)F", "target": "Uncharacterized hydrolase SAUSA300_2518", "test": "enzyme activity, inhibitor, fluorogenic substrate", "conditions": "0.05 µM", "quantity": "remaining activity", "value": "91% and 84.9% and 92.2%"}
{"Structure (SMILES)": "O=C(Cc1cccc(I)c1)N[C@H]1CCOC1=O", "target": "sdiA", "quantity": "Emax", "value": "127%"}
{"Structure (SMILES)": "CC(C)[C@@H]1NC(=O)[C@H](CC(N)=O)NC(=O)CNC(=O)[C@H](CC(N)=O)NC(=O)[C@H](C)NC(=O)[C@H](CC(=O)O)NC(=O)[C@H]([C@@H](C)O)NC(=O)[C@H](CCC(=O)O)NC(=O)CNC(=O)[C@H]([C@@H](C)O)NC(=O)[C@H](CCC(=O)O)NC(=O)[C@H](CCC(=O)O)NC(=O)[C@H](CC(=O)O)NC1=O", "target": "KEAP1", "test": "Keap1-Nrf2 binding, inhibitor, competitive FP", "conditions": "0.0244 µM, 30 min, together with: Nrf2 peptide probe", "scale": "lower = stronger inhibition", "quantity": "fluorescence polarization", "value": "1.06 a.u. and 0.938 a.u."}
{"Structure (SMILES)": "CS(C)(=O)=Nc1ccc(-c2ccc(-c3nc4cc(O[C@@H]5CO[C@H]6[C@@H]5OC[C@H]6O)[nH]c4cc3F)cc2)cc1", "target": "KV channel", "test": "binding, radioligand binding", "conditions": "10 µM", "quantity": "inhibition", "value": "-3%"}
{"Structure (SMILES)": "O=C1NC(=O)c2c1c1cc(F)c[n+]3c1c1c2c2cc(O)ccc2[n]1[Ru-4]312([N]=C=S)[S+]3CC[S+]1CC[S+]2CC3 (stereo not shown)", "target": "YES1 (Homo sapiens, UniProt P07947)", "test": "enzyme activity", "conditions": "100 nM, human enzyme, together with: 10 µM ATP", "scale": "reference: untreated", "quantity": "remaining activity", "value": "26%"}
{"Structure (SMILES)": "O=NC1=C(c2cccc([N+](=O)[O-])c2)Nc2ccccc2S1", "target": "Tumor susceptibility gene 101 protein (Homo sapiens, UniProt Q99816)", "test": "thermal stability", "conditions": "800 µM", "quantity": "ΔTm", "value": "4.7 °C"}
{"Structure (SMILES)": "CCc1nnc(-c2c(OC)cc(-c3cnc4cc(-c5cnn(C)c5)ccn34)cc2OC)o1", "target": "Maoa (Rattus norvegicus, UniProt P21396)", "conditions": "10 µM", "quantity": "inhibition of specific binding", "value": "7%"}
{"Structure (SMILES)": "Oc1ccc(C[C@@H]2CN([C@@H](CC3CCCCC3)CN3CCC[C@H]3CN3CCNC[C@@H]3Cc3ccc4ccccc4c3)CCN2CCCC2CCCC2)cc1", "target": "Oprm1", "test": "radioligand binding", "test system": "rat brain membranes", "conditions": "500 nM, pH 7.5, 25 °C, together with: 0.87 nM [3H]DAMGO", "quantity": "remaining binding", "value": "111 ± 6.06%"}
{"Structure (SMILES)": "CC(C)CC(O)(CC(C)C)c1cn(C(=O)N2CCCC2)nn1", "target": "Dipeptidyl peptidase 2 (Dpp7, Mus musculus, UniProt Q9ET22)", "test": "probe labelling, inhibitor, competitive ABPP-SILAC, refers to: Dpp7", "test system": "mouse T cells", "conditions": "concentration not given, 4 h, single peptide", "scale": "reference: treated over DMSO cells, lower = stronger inhibition", "quantity": "SILAC activity ratio", "value": "1.38 and 1.22 and 1.18 and 1.12 and 1"}
{"Structure (SMILES)": "OC[C@H]1CNCCN1C[C@@H]1CCCN1C[C@@H](Cc1ccc2ccccc2c1)N1CCN(CCC23CC4CC(CC(C4)C2)C3)[C@H](Cc2ccc(O)cc2)C1", "target": "Oprm1", "test": "radioligand binding", "test system": "rat brain membranes", "conditions": "500 nM, pH 7.5, 25 °C, together with: 0.87 nM [3H]DAMGO", "quantity": "remaining binding", "value": "101 ± 4.2%"}
{"Structure (SMILES)": "O=S(=O)(F)c1cccc2c1OCC2", "target": "Uncharacterized hydrolase SAUSA300_2518", "test": "enzyme activity, inhibitor, fluorogenic substrate", "conditions": "0.05 µM", "quantity": "remaining activity", "value": "112%"}
{"Structure (SMILES)": "N[C@H](C(=O)N1CCCC1)C1CCN(c2nccc3c(-c4ncc(Cl)cc4Cl)cccc23)CC1", "target": "PADI2 (Homo sapiens, UniProt Q9Y2J8)", "test": "enzyme activity", "conditions": "3.84 µM, together with: Ca2+ 0.25 mM", "quantity": "kcat", "value": "0.0202 s⁻¹"}
{"Structure (SMILES)": "CCOC(=O)[C@@H]1Cc2c(cc([N+](=O)[O-])cc2[N+](=O)[O-])[C@H](O)[C@]12C(=O)Nc1ccc(Br)cc12", "target": "MAPK3", "test": "binding, competition with immobilised ligand", "conditions": "0.1 µM", "quantity": "remaining binding", "value": "46%"}
{"Structure (SMILES)": "CC=C1CN2CCc3c([nH]c4ccccc34)C2CC1C(=COC)C(=O)OC (stereo not shown)", "target": "PRDX3 (Homo sapiens, UniProt P30048)", "test": "binding", "conditions": "20 µM", "quantity": "SPR response", "value": "~50 RU"}
{"Structure (SMILES)": "CN(C)CCCSC(=S)N1CCN(C(=O)/C=C/c2coc3ccccc3c2=O)CC1", "target": "Nucleoprotein (N, Tomato spotted wilt virus, UniProt P25999, R94A/Y184A)", "test": "binding, microscale thermophoresis", "conditions": "0.061 µM", "scale": "dose series", "quantity": "MST response", "value": "0.0696 a.u."}
{"Structure (SMILES)": "O=C(CCCOc1ccc(Cl)cc1)N[C@H]1CCOC1=O", "target": "lasR", "test": "plasI-LVAgfp reporter, antagonist", "scale": "reference: pump-active over pump-mutant", "quantity": "IC50 ratio", "value": 16}
{"Structure (SMILES)": "CCCCCCCCCC(=O)CC(=O)NC1CCSC1=O (stereo not shown)", "target": "sdiA", "quantity": "Emax", "value": "74%"}
{"note": "Excerpt of the above:"}
{"Structure (SMILES)": "CC[C@H](C)[C@H](NC(=O)[C@H](CCCNC(=N)N)NC(=O)[C@H](CCCNC(=N)N)NC(=O)[C@H](CC(C)C)NC(=O)[C@H](Cc1ccccc1)NC(=O)CNC(=O)CNC(=O)[C@@H](N)Cc1ccc(O)cc1)C(=O)N[C@@H](CCCNC(=N)N)C(=O)N1CCC[C@H]1C(=O)N[C@@H](CCCCN)C(=O)N[C@@H](CC(C)C)C(=O)N[C@@H](CCCCN)C(=O)O", "target": "GPR139 (Homo sapiens, UniProt Q6DWJ6)", "test": "GαoA activation, agonist, BRET", "test system": "HEK293T/17", "conditions": "40 µM", "quantity": "Emax", "value": "92.2% and 91.9%"}
{"Structure (SMILES)": "CCNC(=S)NN=Cc1c2ccccc2cc2ccccc12.Cc1ccc(C(C)C)cc1.[Cl-].[Cl-].[Ru+2]", "target": "Albumin (ALB, Homo sapiens, UniProt P02768)", "test": "modified Stern-Volmer", "conditions": "296 K", "quantity": "binding constant", "value": "6.31 ± 0.23 10⁴ M⁻¹"}
